{"data": "Measurements from different studies", "note": "A part holds a random share of what one study measured. Changes are numbered by the printed parent chain."}
{"data": "Block 1", "target": "CCNF, cyclin fold, Cln2 fusion (human)", "method": "yeast growth competition, sequencing", "medium": "yeast", "setting": "strong parent motif", "reference": "not given", "direction": "higher = stronger binding", "starting sequence": "CDKN1A docking peptide (human); SKACRRLFGPVDS; partner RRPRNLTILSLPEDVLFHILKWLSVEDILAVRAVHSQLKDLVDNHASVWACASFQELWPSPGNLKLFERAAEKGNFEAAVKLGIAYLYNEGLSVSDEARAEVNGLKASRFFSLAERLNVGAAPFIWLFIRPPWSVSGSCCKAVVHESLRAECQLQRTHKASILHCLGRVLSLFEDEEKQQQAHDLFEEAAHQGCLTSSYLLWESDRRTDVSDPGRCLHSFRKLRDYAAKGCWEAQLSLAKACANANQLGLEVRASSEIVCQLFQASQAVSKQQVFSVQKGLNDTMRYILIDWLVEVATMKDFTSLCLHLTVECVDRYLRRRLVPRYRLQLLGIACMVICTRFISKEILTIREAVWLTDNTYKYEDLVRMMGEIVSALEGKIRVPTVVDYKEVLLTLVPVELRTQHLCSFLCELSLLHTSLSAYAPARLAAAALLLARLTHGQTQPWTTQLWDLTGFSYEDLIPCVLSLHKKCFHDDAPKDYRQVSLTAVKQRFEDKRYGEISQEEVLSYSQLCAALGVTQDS"}
{"Substitution": "L7Y", "normalised enrichment score": 0.939}
{"Substitution": "V11H", "normalised enrichment score": 7.54}
{"Substitution": "C4K", "normalised enrichment score": 7.09}
{"Substitution": "V11Y", "normalised enrichment score": 7.78}
{"Substitution": "A3G", "normalised enrichment score": 4.6}
{"Substitution": "V11A", "normalised enrichment score": 7.52}
{"Substitution": "P10W", "normalised enrichment score": 6.72}
{"Substitution": "F8Q", "normalised enrichment score": 0.00376}
{"Substitution": "C4I", "normalised enrichment score": 5.57}
{"Substitution": "R5C", "normalised enrichment score": 1.38}
{"Substitution": "R6P", "normalised enrichment score": 3.13}
{"Substitution": "K2I", "normalised enrichment score": 7.02}
{"Substitution": "P10K", "normalised enrichment score": 6.5}
{"Substitution": "P10M", "normalised enrichment score": 6.52}
{"Substitution": "A3Q", "normalised enrichment score": 3.82}
{"Substitution": "L7Q", "normalised enrichment score": 0.268}
{"Substitution": "G9P", "normalised enrichment score": 8.1}
{"data": "Block 2", "target": "TAR DNA-binding protein 43, full length, His tag (TARDBP, Homo sapiens, UniProt Q13148, residues 1-414)", "method": "RNA Bind-n-Seq", "molecule type": "RNA", "medium": "in vitro", "concentration": "20 nM", "setting": "6-mer, flanks averaged, single round", "added": "150 mM KCl", "reference": "input library", "direction": "higher = stronger binding"}
{"Sequence": "UAGUUC", "6-mer enrichment (R)": 0.557}
{"Sequence": "GCUAAC", "6-mer enrichment (R)": 0.671}
{"Sequence": "UUAUCC", "6-mer enrichment (R)": 0.562}
{"Sequence": "AGGGUC", "6-mer enrichment (R)": 1.85}
{"Sequence": "GCUUCU", "6-mer enrichment (R)": 0.601}
{"Sequence": "UAAUGG", "6-mer enrichment (R)": 0.933}
{"Sequence": "CCGAUC", "6-mer enrichment (R)": 0.615}
{"Sequence": "GGGUCC", "6-mer enrichment (R)": 1.87}
{"Sequence": "GCGAAG", "6-mer enrichment (R)": 1.87}
{"Sequence": "UCACCA", "6-mer enrichment (R)": 0.63}
{"Sequence": "CGUACA", "6-mer enrichment (R)": 0.637}
{"Sequence": "CUCCAA", "6-mer enrichment (R)": 0.61}
{"Sequence": "CGCGGC", "6-mer enrichment (R)": 1.47}
{"Sequence": "CCCCGU", "6-mer enrichment (R)": 0.654}
{"Sequence": "CUCUUG", "6-mer enrichment (R)": 0.622}
{"Sequence": "AGUCAA", "6-mer enrichment (R)": 0.625}
{"Sequence": "UACCCC", "6-mer enrichment (R)": 0.637}
{"Sequence": "AGCAAC", "6-mer enrichment (R)": 0.676}
{"Sequence": "GAAUGC", "6-mer enrichment (R)": 1.04}
{"Sequence": "AACACA", "6-mer enrichment (R)": 0.667}
{"Sequence": "UUAACA", "6-mer enrichment (R)": 0.586}
{"Sequence": "UUGAGG", "6-mer enrichment (R)": 1.52}
{"data": "Block 3", "target": "RING finger protein unkempt homolog, zinc fingers 1-6, GST-SBP tag (UNK, Homo sapiens, UniProt Q9C0B0, residues 30-357)", "method": "RNA Bind-n-Seq", "molecule type": "RNA", "medium": "in vitro", "concentration": "not given", "setting": "RNA with constant flanks, human-mouse chimeric sites, ends assumed", "reference": "input RNA pool", "direction": "higher = stronger binding", "UniProt Q9C0B0, sequence (30-357, looked up)": "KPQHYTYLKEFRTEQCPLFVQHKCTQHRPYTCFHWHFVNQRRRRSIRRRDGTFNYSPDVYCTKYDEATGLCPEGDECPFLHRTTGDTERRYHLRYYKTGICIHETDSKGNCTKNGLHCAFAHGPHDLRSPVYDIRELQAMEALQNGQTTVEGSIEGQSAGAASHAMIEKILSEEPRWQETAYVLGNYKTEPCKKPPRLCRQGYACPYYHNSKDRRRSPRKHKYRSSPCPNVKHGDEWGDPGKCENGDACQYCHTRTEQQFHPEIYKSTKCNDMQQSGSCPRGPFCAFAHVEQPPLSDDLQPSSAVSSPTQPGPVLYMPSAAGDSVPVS"}
{"Sequence": "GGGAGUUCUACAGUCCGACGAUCGAUAAGAAAAGCUUGUUGGAGACCCGCUUGCAUGUCACUGGUAGAGAACUGAGGUCCCAAAUAGCUGAAACUUUCGGAUUUCAAGAAAAUUAUAUCAAGAUCGUAAUAAAUAAGAAACAGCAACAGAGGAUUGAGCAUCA", "bound/input enrichment [ratio]": 1.1}
{"Sequence": "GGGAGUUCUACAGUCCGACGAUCAGCACAACACCAGCUAAGCUAAGAAAUCCUUGUACAAGUGAACAAAACUGCACCAGCCCAUUUAGCUACAAAAAUGUGCUCAGUCUUACUGACAGAGGAGAGUUUUUCAAUGAACUUGUUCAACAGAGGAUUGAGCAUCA", "bound/input enrichment [ratio]": 1.9}
{"Sequence": "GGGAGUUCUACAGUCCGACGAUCGUAGCUGGGACUACAGAAAUGCUGGUAAUUUCAGUCAGUGAGUCGUGACUUCUGAUGACCUAGCAAAUGUUGGCAUUGUUGACUGCUGAGAAGAUACUUCUGAGGACCCACGUCUAAGGUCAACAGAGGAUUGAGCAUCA", "bound/input enrichment [ratio]": 0.127}
{"Sequence": "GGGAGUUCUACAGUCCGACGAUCUACUCAACUUUCUUUCCACAUUUUGAAUUCCAAGACAUUAUUCCUCCAGAUGACUUCCUAACGAGUGAUGAAGAGCAAGAUUUGGUUUUAUUUGGAACUAUGAGAGGUCAUGUGGUUGGACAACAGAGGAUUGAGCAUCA", "bound/input enrichment [ratio]": 0.185}
{"Sequence": "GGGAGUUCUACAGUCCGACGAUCCUGUGCGGGUGACUGUCGGGAGCCGUCUGGAGUUCCCGCCGGAGCGCGGCCAGACUAAUUUUAGAAAAUGCCAAGUAGGAAGUUUGUUGAGGGUGAAGUGGUCAGAGGCCGAUGGCCUGGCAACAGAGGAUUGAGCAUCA", "bound/input enrichment [ratio]": 2.44}
{"Sequence": "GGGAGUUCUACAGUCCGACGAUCAGAUUCCCCCUCCUGAGACCUCCUCCGAAGUUGGAGUCUCUUACAGAUGCCUCAUCCCCUGUUAGCGUUUUGGUCUGGACCACACAACCUUGGACAAUUCCCGCCAACCAGGCAAUUUGCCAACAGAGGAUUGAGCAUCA", "bound/input enrichment [ratio]": 0.912}
{"Sequence": "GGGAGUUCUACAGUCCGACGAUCAGAUUCCCCCUCCUGAGACCUCCUCCGAAGUUGGAGUCUCUUACAGAUGCCUCAUCCCCUGUUAGCGUUUUAGUUUGGACCACACAACCUUGGACGAUUCCCGCCAACCAGGCAAUUUGCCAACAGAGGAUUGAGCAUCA", "bound/input enrichment [ratio]": 1.77}
{"Sequence": "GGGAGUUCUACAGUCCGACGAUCUCCCAAAUCCAGCAGCUAGAAGGAGCCUUGAGACAAAGCCUGGAAAUACAGGGAAGGCGAUAACAUUGUACAUUGGUUUACAUUUUUCUCCUUGAAUGAUUUUUCUAGAGGUCAUAGUGCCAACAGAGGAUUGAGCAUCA", "bound/input enrichment [ratio]": 0.36}
{"Sequence": "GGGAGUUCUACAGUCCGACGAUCUCUUAACUUAUUCAUUUAACUUAUUUUUAUAGCUAGAUAAAUAUUGUUAGUCUUAGUCAAUAGCUCACAUUUUUUGAGAAGCAUGCCCUCCCUAUCCAUUUGUCUUAUAACAUGACCCAGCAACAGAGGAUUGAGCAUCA", "bound/input enrichment [ratio]": 12}
{"Sequence": "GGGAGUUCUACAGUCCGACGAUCGGCUGCUGGUGACUGUCGGGAGCCGUCCGUGUCACCGGCCGGAGCGCGGCCAGACUAAUUUUAGAAAAUGCCAAGUAGGAAGUUUGUUGAGGGUGAAGUGGUCAGAGGCCGAUGGCCUGGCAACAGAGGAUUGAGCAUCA", "bound/input enrichment [ratio]": 2.32}
{"Sequence": "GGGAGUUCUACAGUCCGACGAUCCCAAUUGUGGAGCAGUACUUGAAGACAAAGAAAAAUUCUAGUCAUUUAAUCAUCAAGUACAUUAGCUGCCGCCUGCUGACAUUUGUGAUUAUACUGUUAGCGUGUAUCUACCUGGGCUAUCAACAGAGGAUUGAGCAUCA", "bound/input enrichment [ratio]": 0.403}
{"data": "Block 4", "target": "CREBL2, bZIP domain (human)", "method": "DHFR protein complementation", "medium": "yeast", "setting": "single substitutions, most at no-binding floor", "reference": "wild-type JUN-FOS pair", "direction": "higher = stronger binding", "starting sequence": "JUN, bZIP domain (human); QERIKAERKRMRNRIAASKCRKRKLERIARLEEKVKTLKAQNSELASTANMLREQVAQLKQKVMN; partner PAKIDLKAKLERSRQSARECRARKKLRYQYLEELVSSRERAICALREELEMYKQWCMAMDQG"}
{"Substitution": "K34C", "binding fitness": "-0.925 natural log"}
{"Substitution": "E33T", "binding fitness": "-1.21 natural log"}
{"Substitution": "T37F", "binding fitness": "-1.52 natural log"}
{"Substitution": "A40Q", "binding fitness": "-1.3 natural log"}
{"Substitution": "S43L", "binding fitness": "-1.49 natural log"}
{"Substitution": "E32C", "binding fitness": "-1.27 natural log"}
{"Substitution": "L45N", "binding fitness": "-1.5 natural log"}
{"Substitution": "A49S", "binding fitness": "-1.47 natural log"}
{"Substitution": "I28Y", "binding fitness": "-1.5 natural log"}
{"Substitution": "S47R", "binding fitness": "-1.49 natural log"}
{"Substitution": "K36G", "binding fitness": "-1.41 natural log"}
{"Substitution": "E32D", "binding fitness": "-1.15 natural log"}
{"Substitution": "I28M", "binding fitness": "-1.46 natural log"}
{"Substitution": "M51L", "binding fitness": "-1.48 natural log"}
{"Substitution": "A40F", "binding fitness": "-1.56 natural log"}
{"Substitution": "K36W", "binding fitness": "-1.55 natural log"}
{"Substitution": "A46R", "binding fitness": "-1.38 natural log"}
{"data": "Block 5", "target": "ABI1, truncated, D143A, DHFR fusion (Arabidopsis thaliana)", "method": "DHFR PCA, deep sequencing", "medium": "yeast", "setting": "methotrexate growth selection, single substitutions", "added": "(+)-ABA 0.11 µM", "reference": "wild-type fitted maximum", "direction": "higher = stronger binding", "starting sequence": "PYL1, truncated, DHFR fusion (Arabidopsis thaliana); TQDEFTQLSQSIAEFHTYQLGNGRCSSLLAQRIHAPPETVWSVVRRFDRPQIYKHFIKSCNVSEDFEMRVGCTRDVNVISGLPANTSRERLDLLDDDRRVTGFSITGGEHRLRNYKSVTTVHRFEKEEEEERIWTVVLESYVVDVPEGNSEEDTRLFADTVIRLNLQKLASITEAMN; partner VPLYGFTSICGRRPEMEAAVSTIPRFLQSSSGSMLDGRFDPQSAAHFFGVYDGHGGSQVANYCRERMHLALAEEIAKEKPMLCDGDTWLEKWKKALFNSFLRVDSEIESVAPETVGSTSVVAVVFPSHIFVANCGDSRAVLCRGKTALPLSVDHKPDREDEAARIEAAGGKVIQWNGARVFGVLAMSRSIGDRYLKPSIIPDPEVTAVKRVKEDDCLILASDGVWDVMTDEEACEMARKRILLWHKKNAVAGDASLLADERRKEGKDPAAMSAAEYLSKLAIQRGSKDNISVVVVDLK"}
{"Substitution": "V44Y", "relative binding score [%]": -1}
{"Substitution": "V62N", "relative binding score [%]": -3.45}
{"Substitution": "I172V", "relative binding score [%]": 58.9}
{"Substitution": "I33Y", "relative binding score [%]": 0.59}
{"Substitution": "Q7W", "relative binding score [%]": 36.5}
{"Substitution": "K58F", "relative binding score [%]": -2.95}
{"Substitution": "E129Y", "relative binding score [%]": 16.4}
{"Substitution": "Q7T", "relative binding score [%]": 29.6}
{"Substitution": "H16S", "relative binding score [%]": 0.289}
{"Substitution": "N149W", "relative binding score [%]": 11.2}
{"Substitution": "N85S", "relative binding score [%]": 59.4}
{"Substitution": "T119L", "relative binding score [%]": 5.65}
{"Substitution": "L8W", "relative binding score [%]": 12.1}
{"Substitution": "E128T", "relative binding score [%]": 34.2}
{"Substitution": "D92R", "relative binding score [%]": 18.4}
{"Substitution": "R155F", "relative binding score [%]": -4.73}
{"Substitution": "R74Q", "relative binding score [%]": -1.94}
{"Substitution": "V70A", "relative binding score [%]": 11}
{"Substitution": "K54H", "relative binding score [%]": 1.26}
{"note": "Repeated from above (block 2):"}
{"Sequence": "GCGAAG", "6-mer enrichment (R)": 1.87}
{"Sequence": "UCACCA", "6-mer enrichment (R)": 0.63}
{"Sequence": "CGUACA", "6-mer enrichment (R)": 0.637}
{"Sequence": "CUCCAA", "6-mer enrichment (R)": 0.61}
{"Sequence": "CGCGGC", "6-mer enrichment (R)": 1.47}
{"Sequence": "CCCCGU", "6-mer enrichment (R)": 0.654}
{"Sequence": "CUCUUG", "6-mer enrichment (R)": 0.622}
{"Sequence": "AGUCAA", "6-mer enrichment (R)": 0.625}
{"Sequence": "UACCCC", "6-mer enrichment (R)": 0.637}
{"Sequence": "AGCAAC", "6-mer enrichment (R)": 0.676}
{"Sequence": "GAAUGC", "6-mer enrichment (R)": 1.04}
{"Sequence": "AACACA", "6-mer enrichment (R)": 0.667}
{"Sequence": "UUAACA", "6-mer enrichment (R)": 0.586}
